Literature values, collected from citations in different studies.
Lines come from different studies, so protocols differ. ± gives the spread as reported.
CNR1: Cannabinoid receptor 1 (CNR1, Homo sapiens, UniProt P21554)

By UniProt entry, the sequences of proteins in these tests, tags left out. Where a name states a change or a piece, a line headed by the entry shows the natural chain unless it says otherwise. Residues count along the entry.
UniProt P21554, whole entry: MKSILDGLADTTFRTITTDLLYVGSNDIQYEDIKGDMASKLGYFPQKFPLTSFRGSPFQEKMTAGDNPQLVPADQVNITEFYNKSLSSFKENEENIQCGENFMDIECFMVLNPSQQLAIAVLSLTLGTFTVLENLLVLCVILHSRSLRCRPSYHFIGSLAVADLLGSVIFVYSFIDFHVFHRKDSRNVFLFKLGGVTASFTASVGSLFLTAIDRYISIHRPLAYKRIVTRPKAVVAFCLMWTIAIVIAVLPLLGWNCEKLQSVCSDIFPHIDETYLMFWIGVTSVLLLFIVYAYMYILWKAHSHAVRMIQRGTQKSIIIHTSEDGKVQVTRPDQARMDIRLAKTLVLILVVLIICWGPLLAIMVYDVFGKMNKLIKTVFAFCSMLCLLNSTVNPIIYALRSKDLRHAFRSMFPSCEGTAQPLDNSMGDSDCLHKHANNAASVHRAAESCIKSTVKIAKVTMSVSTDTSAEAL
UniProt Q96DB2, whole entry: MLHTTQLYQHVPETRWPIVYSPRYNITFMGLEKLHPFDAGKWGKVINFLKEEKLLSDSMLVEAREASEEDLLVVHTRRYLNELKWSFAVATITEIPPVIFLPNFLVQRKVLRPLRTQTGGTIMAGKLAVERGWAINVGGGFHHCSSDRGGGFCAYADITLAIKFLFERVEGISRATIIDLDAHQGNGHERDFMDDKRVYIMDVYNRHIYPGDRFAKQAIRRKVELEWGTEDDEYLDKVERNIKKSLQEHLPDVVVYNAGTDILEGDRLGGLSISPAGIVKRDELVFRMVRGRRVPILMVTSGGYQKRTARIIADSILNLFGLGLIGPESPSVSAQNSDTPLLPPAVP
UniProt P30542, whole entry: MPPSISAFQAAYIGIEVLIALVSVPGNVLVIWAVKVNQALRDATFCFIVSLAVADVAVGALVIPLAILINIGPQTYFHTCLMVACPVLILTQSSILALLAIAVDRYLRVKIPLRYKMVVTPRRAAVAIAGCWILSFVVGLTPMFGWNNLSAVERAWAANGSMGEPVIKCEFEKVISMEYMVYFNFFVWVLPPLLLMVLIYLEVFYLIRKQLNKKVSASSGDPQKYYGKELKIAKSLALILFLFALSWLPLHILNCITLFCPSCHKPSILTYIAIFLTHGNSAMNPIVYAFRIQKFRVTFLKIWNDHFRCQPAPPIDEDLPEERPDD
UniProt Q13547, whole entry: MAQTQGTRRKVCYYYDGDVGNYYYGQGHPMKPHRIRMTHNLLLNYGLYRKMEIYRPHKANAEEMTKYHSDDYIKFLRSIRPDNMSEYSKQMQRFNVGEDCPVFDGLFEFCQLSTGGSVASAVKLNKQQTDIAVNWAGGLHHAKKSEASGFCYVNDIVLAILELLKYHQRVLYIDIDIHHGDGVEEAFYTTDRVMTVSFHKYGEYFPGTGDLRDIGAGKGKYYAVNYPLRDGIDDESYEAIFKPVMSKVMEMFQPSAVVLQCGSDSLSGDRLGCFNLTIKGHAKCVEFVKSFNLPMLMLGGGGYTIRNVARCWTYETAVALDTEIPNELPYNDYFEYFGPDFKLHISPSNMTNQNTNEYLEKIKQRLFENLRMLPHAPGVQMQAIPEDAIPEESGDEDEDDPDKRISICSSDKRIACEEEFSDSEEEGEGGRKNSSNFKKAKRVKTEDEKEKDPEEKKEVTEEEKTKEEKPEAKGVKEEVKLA
UniProt P38398, whole entry, looked up: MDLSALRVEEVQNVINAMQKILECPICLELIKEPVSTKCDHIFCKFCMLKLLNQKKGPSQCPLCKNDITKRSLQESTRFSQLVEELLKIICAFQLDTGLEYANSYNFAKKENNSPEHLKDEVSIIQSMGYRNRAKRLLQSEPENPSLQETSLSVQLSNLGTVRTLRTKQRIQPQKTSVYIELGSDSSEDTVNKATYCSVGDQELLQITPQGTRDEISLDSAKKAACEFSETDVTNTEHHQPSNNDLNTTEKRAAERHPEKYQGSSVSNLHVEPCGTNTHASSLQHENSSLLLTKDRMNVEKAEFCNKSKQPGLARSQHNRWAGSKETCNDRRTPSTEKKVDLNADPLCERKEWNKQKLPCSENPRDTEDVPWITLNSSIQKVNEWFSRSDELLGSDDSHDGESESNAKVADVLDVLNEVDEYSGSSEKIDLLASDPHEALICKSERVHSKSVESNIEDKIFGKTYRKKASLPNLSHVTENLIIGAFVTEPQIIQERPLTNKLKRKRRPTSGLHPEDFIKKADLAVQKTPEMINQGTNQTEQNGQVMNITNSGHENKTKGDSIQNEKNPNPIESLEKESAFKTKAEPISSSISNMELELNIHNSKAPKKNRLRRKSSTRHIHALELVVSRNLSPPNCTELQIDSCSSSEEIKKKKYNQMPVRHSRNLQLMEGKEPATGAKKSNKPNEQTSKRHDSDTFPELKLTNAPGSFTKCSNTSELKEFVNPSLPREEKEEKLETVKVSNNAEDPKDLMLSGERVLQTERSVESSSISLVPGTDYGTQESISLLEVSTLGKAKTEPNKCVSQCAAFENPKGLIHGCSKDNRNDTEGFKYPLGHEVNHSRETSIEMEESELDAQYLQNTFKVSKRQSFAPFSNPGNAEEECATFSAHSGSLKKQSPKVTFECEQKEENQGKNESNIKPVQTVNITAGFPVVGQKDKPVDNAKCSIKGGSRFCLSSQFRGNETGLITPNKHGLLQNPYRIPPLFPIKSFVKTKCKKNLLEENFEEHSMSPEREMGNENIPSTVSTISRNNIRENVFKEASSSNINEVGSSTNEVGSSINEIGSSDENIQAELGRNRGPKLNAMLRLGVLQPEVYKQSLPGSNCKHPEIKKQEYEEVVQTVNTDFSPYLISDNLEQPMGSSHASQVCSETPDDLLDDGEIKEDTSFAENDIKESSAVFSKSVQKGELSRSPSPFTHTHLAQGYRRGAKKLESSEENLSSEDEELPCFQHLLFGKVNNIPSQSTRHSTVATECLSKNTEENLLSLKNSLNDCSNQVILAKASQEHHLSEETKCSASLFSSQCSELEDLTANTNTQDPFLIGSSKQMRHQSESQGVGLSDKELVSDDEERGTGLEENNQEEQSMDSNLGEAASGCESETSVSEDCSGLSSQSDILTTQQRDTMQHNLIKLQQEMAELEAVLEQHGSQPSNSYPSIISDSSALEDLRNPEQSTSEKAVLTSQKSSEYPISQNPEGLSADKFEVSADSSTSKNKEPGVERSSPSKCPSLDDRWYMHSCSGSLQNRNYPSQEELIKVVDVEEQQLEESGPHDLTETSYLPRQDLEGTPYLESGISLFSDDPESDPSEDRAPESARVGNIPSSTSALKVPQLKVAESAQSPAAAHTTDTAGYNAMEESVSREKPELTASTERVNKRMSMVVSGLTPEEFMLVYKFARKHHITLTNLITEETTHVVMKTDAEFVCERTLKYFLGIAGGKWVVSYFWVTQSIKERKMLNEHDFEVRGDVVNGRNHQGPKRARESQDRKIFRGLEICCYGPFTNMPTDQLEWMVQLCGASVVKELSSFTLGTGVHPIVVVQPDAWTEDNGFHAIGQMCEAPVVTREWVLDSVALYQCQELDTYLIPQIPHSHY
UniProt P42575, 170-333 limits assumed: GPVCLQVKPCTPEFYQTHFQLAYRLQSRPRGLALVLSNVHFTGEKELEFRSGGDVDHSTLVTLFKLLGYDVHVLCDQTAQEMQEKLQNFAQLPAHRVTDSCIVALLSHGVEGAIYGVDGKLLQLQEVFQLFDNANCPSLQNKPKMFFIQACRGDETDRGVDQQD
UniProt P42575, 348-452 limits assumed: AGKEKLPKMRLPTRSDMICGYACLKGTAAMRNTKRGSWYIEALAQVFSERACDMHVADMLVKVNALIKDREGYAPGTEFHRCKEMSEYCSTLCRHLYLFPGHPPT
UniProt P22756, 31-920 isoform 4 limits assumed: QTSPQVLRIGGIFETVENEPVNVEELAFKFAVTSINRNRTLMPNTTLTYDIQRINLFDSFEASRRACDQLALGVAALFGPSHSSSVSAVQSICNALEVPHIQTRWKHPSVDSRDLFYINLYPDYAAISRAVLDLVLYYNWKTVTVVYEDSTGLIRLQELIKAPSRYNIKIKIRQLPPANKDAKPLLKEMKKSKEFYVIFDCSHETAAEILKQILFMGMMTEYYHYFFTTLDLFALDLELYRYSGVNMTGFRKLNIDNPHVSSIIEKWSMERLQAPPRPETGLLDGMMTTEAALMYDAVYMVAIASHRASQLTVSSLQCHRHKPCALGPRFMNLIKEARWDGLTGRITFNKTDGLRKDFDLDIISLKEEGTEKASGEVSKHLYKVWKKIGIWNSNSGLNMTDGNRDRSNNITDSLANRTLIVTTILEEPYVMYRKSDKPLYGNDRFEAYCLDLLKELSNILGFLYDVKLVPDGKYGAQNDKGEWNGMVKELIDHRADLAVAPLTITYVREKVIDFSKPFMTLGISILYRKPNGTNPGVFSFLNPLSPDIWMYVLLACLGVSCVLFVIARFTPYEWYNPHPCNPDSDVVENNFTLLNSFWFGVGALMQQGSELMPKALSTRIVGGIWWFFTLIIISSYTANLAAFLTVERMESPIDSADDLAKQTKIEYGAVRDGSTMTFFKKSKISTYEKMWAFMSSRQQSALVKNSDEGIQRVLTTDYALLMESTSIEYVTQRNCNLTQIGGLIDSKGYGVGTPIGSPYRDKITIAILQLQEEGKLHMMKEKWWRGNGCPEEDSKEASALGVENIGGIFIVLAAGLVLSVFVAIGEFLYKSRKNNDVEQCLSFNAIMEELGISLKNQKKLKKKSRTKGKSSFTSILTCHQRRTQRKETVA
UniProt Q86U86, 653-763 limits assumed: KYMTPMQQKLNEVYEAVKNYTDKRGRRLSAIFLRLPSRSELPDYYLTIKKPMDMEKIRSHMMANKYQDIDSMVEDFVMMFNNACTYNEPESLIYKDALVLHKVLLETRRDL
UniProt Q9UKV0, whole entry: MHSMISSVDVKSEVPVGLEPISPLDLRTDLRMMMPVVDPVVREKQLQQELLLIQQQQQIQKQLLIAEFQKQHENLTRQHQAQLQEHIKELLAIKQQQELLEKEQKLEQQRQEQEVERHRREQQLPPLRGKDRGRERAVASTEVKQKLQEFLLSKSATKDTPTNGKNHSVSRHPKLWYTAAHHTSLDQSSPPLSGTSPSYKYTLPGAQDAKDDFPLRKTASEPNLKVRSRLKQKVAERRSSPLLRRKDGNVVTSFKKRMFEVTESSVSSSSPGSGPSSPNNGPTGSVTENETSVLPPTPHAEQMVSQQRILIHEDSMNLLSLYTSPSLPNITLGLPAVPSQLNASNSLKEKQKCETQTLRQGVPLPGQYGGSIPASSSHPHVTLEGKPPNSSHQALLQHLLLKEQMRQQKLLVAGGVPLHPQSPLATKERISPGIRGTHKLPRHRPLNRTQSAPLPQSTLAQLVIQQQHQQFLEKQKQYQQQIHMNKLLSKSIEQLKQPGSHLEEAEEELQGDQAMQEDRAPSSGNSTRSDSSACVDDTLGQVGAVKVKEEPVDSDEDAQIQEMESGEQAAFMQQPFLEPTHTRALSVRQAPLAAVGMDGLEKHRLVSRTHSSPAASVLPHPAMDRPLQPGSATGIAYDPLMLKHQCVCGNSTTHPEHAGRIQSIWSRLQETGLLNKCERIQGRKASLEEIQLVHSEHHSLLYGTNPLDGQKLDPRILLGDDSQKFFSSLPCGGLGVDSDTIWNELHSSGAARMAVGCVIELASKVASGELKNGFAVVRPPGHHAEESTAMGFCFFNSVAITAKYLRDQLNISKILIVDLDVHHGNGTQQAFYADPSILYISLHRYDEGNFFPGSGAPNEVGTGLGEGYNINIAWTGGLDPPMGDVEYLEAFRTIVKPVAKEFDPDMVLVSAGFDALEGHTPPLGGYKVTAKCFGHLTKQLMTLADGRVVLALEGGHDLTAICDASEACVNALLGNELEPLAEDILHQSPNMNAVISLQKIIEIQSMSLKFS

CCCCC(=O)NC1CCN(c2ncnc3c2nc(-c2ccccc2Cl)n3-c2ccc(Cl)cc2)CC1 — Ke (CNR1; antagonist): 5 nM
CCCCCCCCCCCCCC(=O)NCCCC[C@H](NC(=O)[C@H](CC(=O)O)NC(=O)[C@@H](NC(=O)[C@H](CCC(=O)O)NC(C)=O)[C@@H](C)O)C(=O)Nc1ccc2c(C)cc(=O)oc2c1 — Km (Histone deacetylase 11 (HDAC11, Homo sapiens, UniProt Q96DB2); substrate): 62 µM
CCC(CC)Nc1nc(Cl)nc2c1ncn2[C@H]1[C@H](O)[C@H](O)[C@@H]2C[C@@H]21 — Emax (Adenosine receptor A1 (ADORA1, Homo sapiens, UniProt P30542); cAMP production inhibition, agonist; CHO cells, receptor-transfected; 10 µM, added: forskolin; relative to: reference full agonist): 28.6 ± 3.8%
CC(=O)NCCCC[C@H](NC(=O)CNC(=O)[C@H](CC(C)C)NC(C)=O)C(=O)Nc1ccc2c(C)cc(=O)oc2c1 — Km (Histone deacetylase 1 (HDAC1, Homo sapiens, UniProt Q13547); substrate): 5.4 µM
CC(=O)N[C@@H](CO)C(=O)N[C@@H](CCCNC(=N)N)C(=O)N[C@@H](CO)C(=O)N[C@H](C(=O)N[C@@H](COP(=O)(O)O)C(=O)N1CCC[C@H]1C(=O)N[C@H](C(=O)N[C@@H](Cc1ccccc1)C(=O)N[C@@H](CC(N)=O)C(=O)N[C@@H](CCCCN)C(N)=O)[C@@H](C)O)[C@@H](C)O — ΔG (Breast cancer type 1 susceptibility protein, BRCT domain (BRCA1, Homo sapiens, UniProt P38398); binding, ITC): -8.7 ± 0.2 kcal/mol
CC(=O)N[C@H](C(=O)N[C@@H](CC(=O)O)C(=O)N[C@H](C(=O)N[C@@H](CCN)C(=O)N[C@H](C=O)CC(=O)O)C(C)C)C(C)C — selectivity ratio (Caspase-2 (Homo sapiens, UniProt P42575); relative to: caspase-2 over caspase-3): 27.7 fold
O=C(CC1CCCCC1)NC1CCN(c2ncnc3c2nc(-c2ccccc2Cl)n3-c2ccc(Cl)cc2)CC1 — selectivity ratio (CNR1; binding; relative to: Ki CB2 over Ki CB1): 1200
O=C(O)c1cc([C@H]2CCN[C@@H]2C(=O)O)ccc1O — affinity ratio (Glutamate receptor ionotropic, kainate 3 (Rattus norvegicus, UniProt P42264); binding; relative to: analog lacking 4-hydroxy group, higher = stronger binding): 10 fold
COc1ccc(Nc2nc(N)[n+]([O-])c(OCC3CCCCC3)n2)cc1 — IC50 (CDK4/6; kinase activity, inhibitor): 33 µM
CCC(C)NC(=O)CSc1nnc(Nc2ccc(C(C)C)cc2)s1 (centres unmarked) — remaining compound (simulated gastric fluid; 2 h, pH 1.2): > 95%
CCC[C@@H]1CN[C@H](C(=O)O)[C@H]1c1cccc(C(=O)O)c1 — selectivity ratio (Glutamate receptor ionotropic, kainate 1 (Rattus norvegicus, UniProt P22756); relative to: GluK3 Ki over GluK1 Ki): 4 fold
Cc1cc(C)cc(Nc2nccc(-c3c(-c4ccc(F)cc4)ncn3C3CCNCC3)n2)c1 — inhibition (Protein polybromo-1, BD5 (PBRM1, Homo sapiens, UniProt Q86U86); concentration not given): > 35%
O=C(O)C1=CCCN(CCON=C(c2ccccc2)c2ccccc2)C1 — Hill coefficient (Sodium- and chloride-dependent GABA transporter 1 (Slc6a1, Rattus norvegicus, UniProt P23978)): 1.1
O=S(=O)(NC1CCN(c2ncnc3c2nc(-c2ccccc2Cl)n3-c2ccc(Cl)cc2)CC1)c1ccccc1 — selectivity ratio (CNR1; binding; relative to: Ki CB2 over Ki CB1): 5100
CC(=O)N[C@@H](CC(C)C)C(=O)NCC(=O)N[C@@H](CCCCNC(=O)C(F)(F)F)C(=O)Nc1ccc2c(C)cc(=O)oc2c1 — Km (Histone deacetylase 9 (HDAC9, Homo sapiens, UniProt Q9UKV0); substrate): 37 µM
CS(=O)(=O)NC1CCN(c2ncnc3c2nc(-c2ccccc2Cl)n3-c2ccc(Cl)cc2)CC1 — Ke (CNR1; antagonist): 71 nM
Cc1cc(C)c(C(=O)n2nc(Nc3ccc(S(N)(=O)=O)cc3)nc2N)s1 — IC50 (CDK4/6; kinase activity, inhibitor): 0.00104 µM
